Results collected from several papers.
Protocols differ between the studies behind these lines. ± gives the spread as reported.
Target: Pancreatic alpha-amylase (AMY2, Sus scrofa, UniProt P00690)
Read-out: enzyme activity
Action: inhibitor
Sequence (P00690 16-511, as in one of the studies): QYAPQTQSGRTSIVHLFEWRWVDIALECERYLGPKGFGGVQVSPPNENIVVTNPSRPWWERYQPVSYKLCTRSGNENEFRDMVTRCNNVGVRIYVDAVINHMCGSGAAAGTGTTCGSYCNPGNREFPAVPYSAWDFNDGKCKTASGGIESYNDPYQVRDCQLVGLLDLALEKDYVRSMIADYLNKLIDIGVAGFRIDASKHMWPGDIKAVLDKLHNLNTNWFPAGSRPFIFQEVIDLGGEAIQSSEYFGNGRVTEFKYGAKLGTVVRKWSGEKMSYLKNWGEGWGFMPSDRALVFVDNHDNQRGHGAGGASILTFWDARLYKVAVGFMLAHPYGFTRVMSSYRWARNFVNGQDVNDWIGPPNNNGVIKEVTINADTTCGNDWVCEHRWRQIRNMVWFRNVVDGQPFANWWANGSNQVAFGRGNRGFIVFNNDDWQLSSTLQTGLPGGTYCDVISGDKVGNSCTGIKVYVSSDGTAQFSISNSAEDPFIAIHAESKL

SMILES | technique | pH | endpoint | result
COc1cc([C@H]2OC[C@]3(OC(C)=O)[C@@H](c4ccc(O)c(OC)c4)OC[C@H]23)ccc1O |  |  | IC50 | 13.9 µM
CC(=O)C1=C(C)NC(=O)NC1c1ccc(Cl)cc1 (centres unmarked) |  |  | IC50 | 38.6 µM
C=C1CC[C@@H]2C(C)(C)[C@H](O)CC[C@@]2(C)[C@@H]1COc1ccc2ccc(=O)oc2c1 | absorbance | pH 6 | IC50 | 22.1 µM
C=C[C@]1(C)CC[C@H]2C(=C[C@H]3OC(=O)[C@@]4(C)C(=O)CC[C@@]2(C)[C@@H]34)C1 |  |  | IC50 | 422 µM
CC(=O)C1=C(C)NC(=O)NC1c1cccc(C)c1 (centres unmarked) |  |  | IC50 | 67 µM
C=CC1(C)CCC2C(=CC3OC(=O)C4(C)C3C23CCC4(O)OC3)C1 (centres unmarked) |  |  | IC50 | 390 µM
COc1cc([C@H]2OCC3C2CO[C@@H]3c2ccc(O)c(OC)c2)ccc1O (single isomer, unassigned; (+)) |  |  | IC50 | > 500 µM
O=C(CN1C(C(=O)c2ccccc2)=C(O)c2ccccc2S1(=O)=O)Nc1ccccc1Br |  |  | Ki | 287 µM
CC(=O)C1=C(C)NC(=O)NC1c1cccc(Cl)c1 (centres unmarked) |  |  | IC50 | 50.5 µM
Cc1cccc(/C=C/C(=O)c2cnn(-c3ccccc3)c2C)c1 | absorbance |  | IC50 | 502 µM
Cc1cc(O)c(C=O)c2c1C(=O)Oc1c(CO)c(O)c3c(c1O2)C(O)OC3=O (centres unmarked) |  |  | IC50 | 0.114 ± 0.00612 µM
Cc1ccc(N(O)/N=N/c2ccc(S(=O)(=O)Nc3nccs3)cc2)cc1 |  |  | IC50 | 839 µM
COC(CO)c1ccc(O)c(O)c1 (centres unmarked) |  |  | IC50 | > 500 µM
CC(=O)C1=C(C)NC(=O)NC1c1ccc(F)cc1 (centres unmarked) |  |  | IC50 | 40.5 µM

A few entries again:
SMILES | technique | pH | endpoint | result
Cc1ccc(N(O)/N=N/c2ccc(S(=O)(=O)Nc3nccs3)cc2)cc1 |  |  | IC50 | 839 µM
